Measured values from different studies.
Protocols differ between the studies behind these lines. Values joined by “and” are separate records of one study, mostly repeats; a detail may differ. ± gives the spread as reported.

SMILES | test | system | setting | plasma concentration
COc1nc(-c2cc(C)c(N[C@@H](C)c3c(F)cc(F)cc3F)nn2)ccc1-n1cnc(C)c1 |  | C57BL/6J mice, male, plasma | oral, 25 mg/kg daily for 9 days, 4 h after last dose | 5480 ng/mL
O=Cc1cc2c(cc1F)C(=O)N(C1CCC(=O)NC1=O)C2 (stereo not drawn) |  | CD-1 mice | intravenous, 1 mg/kg, 0.25 h | not detected
Cc1cc([C@@H](C)Nc2ccccc2C(=O)O)c2nc(N3CCC(F)(F)CC3)c(C#N)c(=O)n2c1 |  | NOD SCID mice, HCC1954 xenograft | oral, 300 mg/kg once daily, 8 h | 279 ng/mL
COc1cc(F)c([C@@H]2CNC(=O)[C@H]2NC(=O)Nc2ccccc2)c(F)c1 |  | C57BL/6 mice, LPS challenge, plasma | oral, 3 mg/kg, 1.5 h post dose | 112 ± 50 nM
COc1nc(-c2cc(C)c(N[C@@H](C)c3cc(F)cc(F)c3)nn2)ccc1-n1cnc(C)c1 |  | C57BL/6J mice, male, plasma | oral, 50 mg/kg daily for 9 days, 4 h after last dose | 23000 ng/mL
O=S(=O)(c1ccc(-c2ccc3nccc(Nc4ccncn4)c3c2)cc1)N1CCOCC1 |  | female BALB/c mice, plasma | intraperitoneal, 10 mg/kg, 4 h | 2200 ng/mL and 1840 ng/mL and 27.6 ng/mL
Cc1cc2sc(N)nc2c2cccnc12 | LC-MS | BALB/c mice, female | intraperitoneal, 30 mg/kg, 2 h | 1110 ± 130 ng/mL
CC[C@H](C)[C@H](NC(=O)[C@H](CCC(=O)O)NC(=O)[C@H](CO)NC(=O)[C@@H](NC(=O)[C@@H](N)CO)C(C)C)C(=O)N[C@@H](CCC(N)=O)C(=O)N[C@@H](CC(C)C)C(=O)N[C@@H](CCSC)C(=O)N[C@@H](Cc1cnc[nH]1)C(=O)N[C@@H](CC(N)=O)C(=O)N[C@@H](CC(C)C)C(=O)NCC(=O)N[C@@H](CCCCN)C(=O)N[C@@H](Cc1cnc[nH]1)C(=O)N[C@@H](CC(C)C)C(=O)N[C@@H](CC(N)=O)C(=O)N[C@@H](CO)C(=O)N[C@@H](CCSC)C(=O)N[C@@H](CCC(=O)O)C(=O)N[C@@H](CCCNC(=N)N)C(=O)N[C@H](C(=O)N[C@@H](CCC(=O)O)C(=O)N[C@@H](Cc1c[nH]c2ccccc12)C(=O)N[C@@H](CC(C)C)C(=O)N[C@@H](CCCNC(=N)N)C(=O)N[C@@H](CCCCN)C(=O)N[C@@H](CCCCN)C(=O)N[C@@H](CC(C)C)C(=O)N[C@@H](CCC(N)=O)C(=O)N[C@@H](CC(=O)O)C(=O)N[C@H](C(=O)N[C@@H](Cc1cnc[nH]1)C(=O)N[C@@H](CC(N)=O)C(=O)N[C@@H](Cc1ccccc1)C(N)=O)C(C)C)C(C)C | ELISA | female CD-1 mice, blood plasma | subcutaneous, 10 nmol/kg, 2 h | 0.038 nM
O=[N+]([O-])c1ccc(-c2ccc(O)cc2)c2cccnc12 |  | ICR mice male, plasma | intravenous, 1 mg/kg, 1 h | 1.67 ng/mL

Excerpt of the above:
SMILES | test | system | setting | plasma concentration
COc1nc(-c2cc(C)c(N[C@@H](C)c3cc(F)cc(F)c3)nn2)ccc1-n1cnc(C)c1 |  | C57BL/6J mice, male, plasma | oral, 50 mg/kg daily for 9 days, 4 h after last dose | 23000 ng/mL
